Published values gathered from unrelated publications.
Lines come from different studies, so protocols differ. Numbers after ± are the reported error. Values after ≈ are worked out from the molar mass of the structure shown.

SMILES | test | test system | setting | scale | measurement | result
CC(C)(O)c1ncc([S@](N)(=O)=NC(=O)Nc2c3c(cc4c2CCC4)CCC3)s1 |  | human, plasma | oral, 30 mg, single dose, fasted, healthy volunteers |  | Tmax | 3 h
C=C(c1ccc(C(=O)O)c(F)c1)c1cc2c(cc1C)C(C)(C)C=CC2(C)C |  | Sprague-Dawley rat, male, plasma | oral, 100 mg/kg, 24 h, sesame oil vehicle |  | LDL level | 3 mg/dL
COC(=O)C1OC(Oc2c(-c3ccccc3)oc3cc(O)c(O)c(O)c3c2=O)C(O)C(O)C1O (stereo not drawn) |  | BALB/c mouse, kidney | 5 mg/kg |  | organ weight | 1.25 ± 0.6 g
COc1cc2c(cc1OC)CN(CCCCn1ccc3cc(OCC[18F])ccc31)C2 |  | mouse serum | 2 h, 37 °C |  | radiochemical purity | > 99%
C/C=C/CNC(=N)NCCCCCCCCN1CCCc2cc(Cl)ccc2COc2ccccc2CNC(=N)NC1=O | PAMPA | egg phosphatidylcholine in dodecane | 500 µM, 5 h, pH 7.4, room temperature |  | membrane retention | 52.1%
CCCCC1NC(=O)c2ccccc21 (racemic) |  | Wistar rat, plasma | intravenous, 10 mg/kg |  | CL/F | 12.1 mL/min/kg
Cc1cc(O)c2c(c1)C(=O)c1cc(O)cc(O)c1C2=O.Cc1cc(O)c2c(c1)C(=O)c1cc(O)cc(O)c1C2=O.Cc1nc(C)c(C)nc1C | shake-flask | water and phosphate buffer | pH 6.8, 37 °C | relative to: pure emodin | equilibrium solubility | increased
CN1CCN(c2ccc(Nc3ncc(Cl)c(Nc4ccccc4P(C)(C)=O)n3)cc2Br)CC1 |  | male Sprague-Dawley rat, plasma | oral, 25 mg/kg |  | MRT(0-inf) | 22.8 h
CC(C)C[C@@H](NC(=O)[C@H](NC(=O)[C@H]1CCCN1)[C@H](C)O)C(=O)N[C@H](Cc1c[nH]cn1)C(=O)N[C@@H](C(=O)N[C@H](Cc1c[nH]cn1)C(=O)N[C@H](CC(N)=O)C(=O)N[C@H](CCCNC(=N)N)C(=O)N[C@H](CCCNC(=N)N)C(=O)N[C@H](CCCNC(=N)N)C(=O)N[C@H](CCCNC(=N)N)C(=O)N[C@H](CCCNC(=N)N)C(N)=O)[C@H](C)O |  | Beagle dog, CSF | intravenous, 3 mg/kg, single dose |  | AUC(0-t) | 961 ± 373 ng·h/mL
CC(C)[C@H](NC(=O)[C@@H]1CCCN1C(=O)[C@H](CCCNC(=N)N)NC(=O)[C@H](CS)NC(=O)[C@H](Cc1c[nH]c2ccccc12)NC(=O)[C@H](CCCNC(=N)N)NC(=O)[C@@H](Cc1ccccc1)NC(=O)[C@H](Cc1c[nH]cn1)NC(=O)[C@H](CCC(=O)O)NC(=O)[C@H](CS)NC(=O)[C@H](CS)NC(=O)CNC(=O)[C@@H]1CC(=O)N[C@@H](CCCNC(=N)N)C(=O)NCC(=O)N[C@@H](CC(=O)O)C(=O)N[C@H](Cc2ccc(O)cc2)C(=O)N1)C(N)=O [technetium-99m labelled] |  | C57 mouse, female, B16/F1 melanoma, skin | intravenous, 0.037 MBq, 2 h |  | tissue uptake | 1.56 ± 0.43 %ID/g
CC(C)[C@H](NC(=O)CNC(=O)[C@H](CCC(N)=O)NC(=O)[C@H](C)N)C(=O)O |  | human, both sexes, plasma | intravenous infusion, 45 mg/kg/h, 2 h infusion, geometric mean |  | volume of distribution | 21 L/kg
CC[C@H](C)[C@H](NC(=O)[C@H](CCCCN)NC(=O)[C@@H](NC(=O)[C@H](CS)NC(=O)[C@H](CCCNC(=N)N)NC(=O)[C@H](CCCNC(=N)N)NC(=O)[C@H](CC(N)=O)NC(=O)[C@H](CCCNC(=N)N)NC(=O)[C@H](CCCNC(=N)N)NC(=O)[C@H](CS)NC(=O)[C@@H](NC(=O)[C@H](CO)NC(=O)[C@@H](NC(=O)[C@@H](NC(=O)[C@H](CS)NC(=O)[C@H](CCCCN)NC(=O)[C@@H](N)CCCNC(=N)N)C(C)C)[C@@H](C)CC)C(C)C)[C@@H](C)CC)C(=O)N[C@@H](CC(C)C)C(=O)N[C@@H](CS)C(=O)N[C@@H](CC(N)=O)C(=O)O | LC-MS | PBS | 0.1 mg/mL |  | single disulfide form | 59%
N=C(N)NCCC[C@@H]1NC(=O)[C@H](Cc2c[nH]c3ccccc23)NC(=O)[C@@H](CC2CCCCC2)NC(=O)[C@@H]2CCCN2C(=O)[C@@H](NC(=O)CCc2ccccc2)CCCNC1=O |  | C57BL/6J mice, brain | oral, 1 mg/kg, two-compartment model |  | apparent peripheral volume (V2/F) | < 0.001 µg/(ng/g)
COc1ccc(S(=O)(=O)N/N=C/c2ccc(C#N)cc2)cc1OC |  | buffer | pH 2, 37 °C |  | chemical stability | unstable
COc1ccc(/C=C/c2ccc(-c3ccc(C)cn3)nc2)cc1 | TCSPC | benzene |  |  | fluorescence lifetime | 0.75 ns
CCCCCCCCCCCCCCCC(=O)N[C@@H](CCCCN)C(=O)N[C@H](C(=O)N[C@H](C(=O)N[C@@H](CCCCN)C(=O)N[C@@H](CO)C(=O)O)[C@@H](C)O)[C@@H](C)O |  | hairless mouse, skin, Franz cell | 50 µg/cm^2 applied, 24 h |  | percent of applied dose in dermis | 0.6%
Cc1ccc(OCC(=O)O)cc1 |  | Sprague-Dawley rat Crl:CD(SD), male, plasma | oral, 10 mg/kg/day of parent drug, day 1, 90-day repeated dosing |  | Cmax | 1820 ± 494 ng/mL

SMILES | test | test system | setting | scale | measurement | result
C[Si]1(C[C@H](CN)CC(=O)O)CCCC1 | neuromuscular coordination | Wistar rat male | oral, 300 mg/kg, 1 h |  | performance time | 180 s
Cc1ccccc1/N=N/c1ccc(/N=N/c2c(O)ccc3ccccc23)c(C)c1 |  | rat whole blood QC samples | 16.0 µg/L, 8 h, room temperature, short-term stability |  | measured concentration | 16.2 µg/L
O=C(C1CC1)N1CC=C(c2cc3c(Nc4cc5ncsc5cc4F)ncnc3s2)CC1 |  | human liver microsomes | 1 µM |  | intrinsic clearance | < 12 mL/min/g protein
Cc1ccc(NCC(=O)N2CCOCC2)cc1S(=O)(=O)N1CCOCC1 |  | water |  |  | kinetic solubility | 110 µM (≈ 42.2 µg/mL)
CC(C)CCCC(C)CCCC(C)CCO[C@@H]1O[C@H](CO)[C@@H](O[C@H]2O[C@H](CO)[C@@H](O)[C@H](O)[C@H]2O)[C@H](O)[C@H]1O (stereo partly drawn) | dynamic surface tension |  | 0.0072 mmol/L |  | equilibrium surface tension | 36.3 mN/m
CCOC(=O)c1[nH]c(C)c(/C=C/c2c(I)c(C)c3n2[B-](F)(F)[N+]2=C(C)C(I)=C(C)C2=C3c2cc(OC)cc(OC)c2)c1C |  | dichloromethane |  |  | absorption maximum | 606 nm
CC(C)C(=O)NC1CC=C(c2cc3c(Nc4cc5ncsc5cc4F)ncnc3s2)CC1 (racemic) |  | human liver microsomes | 1 µM |  | intrinsic clearance | 26 mL/min/g protein
CCCC(CCC)NC(=O)c1ccc(OS(=O)(=O)O)c(OC)c1 |  | female Sprague-Dawley rats, plasma | oral, 50 mg/kg of parent drug | relative to: 50 over 20 mg/kg dose | AUC(0-last) ratio | 2.43
CCc1cc(Nc2nc(-c3ccc(-n4cnc(C)c4)c(F)c3)cs2)c(C)cc1C(=O)O |  | dog, plasma | oral, dose not given |  | share of drug-related material | > 10%
Cn1c(=O)oc2ccc(-c3ccc(CC(C#N)NC(=O)C4CNCCCO4)c(F)c3)cc21 (stereo not drawn) | refers to: alanine aminotransferase increased | human | 80 mg single dose, fasted |  | subjects with TEAE | 0%
CCCCCCCC(=O)OC[C@H](NC(=O)[C@H](CO)NC(=O)CN)C(=O)N[C@@H](Cc1ccccc1)C(=O)N[C@@H](CC(C)C)C(=O)N[C@@H](CO)C(=O)N1CCC[C@H]1C(=O)N[C@@H](CCC(=O)O)C(=O)N[C@@H](Cc1cnc[nH]1)C(=O)N[C@@H](CCC(N)=O)C(=O)N[C@@H](CCCNC(=N)N)C(=O)N[C@H](C(=O)N[C@@H](CCC(N)=O)C(=O)N[C@@H](CCC(N)=O)C(=O)N[C@@H](CCCNC(=N)N)C(=O)N[C@@H](CCCCN)C(=O)N[C@@H](CCC(=O)O)C(=O)N[C@@H](CO)C(=O)N[C@@H](CCCCN)C(=O)N[C@@H](CCCCN)C(=O)N1CCC[C@H]1C(=O)N1CCC[C@H]1C(=O)N[C@@H](C)C(=O)N[C@@H](CCCCN)C(=O)N[C@@H](CC(C)C)C(=O)N[C@@H](CCC(N)=O)C(=O)N1CCC[C@H]1C(=O)N[C@@H](CCCNC(=N)N)C(=O)O)C(C)C |  | patients with chronic HFrEF | iv infusion, 0.1 µg/kg/min, 30 min after end of infusion, scale 1-10, median | direction not given | thirst score | 5
COc1cc2ncnc(Oc3ccc4c(C(N)=O)c(C)oc4c3)c2cc1OC |  | human, moderate hepatic impairment, plasma | oral, dose not given, dose-normalized, metabolite | relative to: normal hepatic function | decrease in AUC(0-inf) | 1%
CC(C)c1cnc(-c2cc(Cl)ccc2F)cc1Nc1ccncc1C(=O)NC(CO)CO | refers to: hypotension | human patients | oral, dose not given, grade 2 |  | patients with related SAE | 0%
C#CCOc1ccc(/C=C2\SC(=O)N(CC(=O)NCc3ccccc3)C2=O)cc1 | inverse Kirkwood-Buff integrals | binary solvent mixture | 298.15 K, mole fraction x1 0.05 |  | Kirkwood-Buff integral G1,3 | -651 cm³/mol
COc1ccc2cc(-c3ccc(-c4ccc(C)cn4)nc3)oc2c1 | TCSPC | water, HEPES 100 mM | pH 7.4 |  | radiative decay rate constant | 0.1 ns⁻¹
Cc1[nH]nc2c1N=C(c1ccccc1Cl)c1cnc(NCC(=O)O)cc1N2 |  | human, feces | oral, 10 mg, 0 to 192 h | relative to: dose | excretion in feces | 1.23%
